Measurements collected from several papers.
Numbered parts are unrelated; each lists some results of a single study. Substitutions count along the parent as printed.

Sample 1
Target: CCND1, cyclin fold, Cln2 fusion (human)
Technique: yeast growth competition, sequencing
Medium: yeast
Notes: weak parent motif
Reference: not given
Reading: higher = stronger binding
Starting sequence: viral docking peptide; TSVRRALFTGGSD; partner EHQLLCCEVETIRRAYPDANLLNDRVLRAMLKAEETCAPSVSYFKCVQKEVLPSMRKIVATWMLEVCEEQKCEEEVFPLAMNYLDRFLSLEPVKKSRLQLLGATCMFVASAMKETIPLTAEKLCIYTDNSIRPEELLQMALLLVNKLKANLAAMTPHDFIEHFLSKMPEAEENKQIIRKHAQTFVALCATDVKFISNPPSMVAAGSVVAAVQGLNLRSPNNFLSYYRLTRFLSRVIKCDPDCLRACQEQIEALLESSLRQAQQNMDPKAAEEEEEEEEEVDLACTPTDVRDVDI
Change	normalised enrichment score
A6F	0.644
T9D	0.379
V3A	1.27
A6D	0.0166
R4A	0.56
R4C	1.46
T9C	0.416
L7Q	-0.058

Sample 2
Target: HLA class I histocompatibility antigen, C alpha chain, allele C*04:01 (Homo sapiens, UniProt P10321)
Read-out: peptide-MHC binding
Form: peptide
Tested at: concentration not given
Sequence	binding
ITPTIYLLL	inactive
FPRIGTAVF	inactive
SHDLAPQFL	inactive
MTMITPPTF	inactive
SVIDHIHYM	inactive
FMFDYIPPV	inactive
KSLTTTMQFK	inactive
AEMGANLCV	inactive

Other studies, line by line
CAMK2A: Calcium/calmodulin-dependent protein kinase type II subunit alpha (CAMK2A, Homo sapiens, UniProt Q9UQM7)
Chain of UniProt Q9UQM7 (whole entry, looked up): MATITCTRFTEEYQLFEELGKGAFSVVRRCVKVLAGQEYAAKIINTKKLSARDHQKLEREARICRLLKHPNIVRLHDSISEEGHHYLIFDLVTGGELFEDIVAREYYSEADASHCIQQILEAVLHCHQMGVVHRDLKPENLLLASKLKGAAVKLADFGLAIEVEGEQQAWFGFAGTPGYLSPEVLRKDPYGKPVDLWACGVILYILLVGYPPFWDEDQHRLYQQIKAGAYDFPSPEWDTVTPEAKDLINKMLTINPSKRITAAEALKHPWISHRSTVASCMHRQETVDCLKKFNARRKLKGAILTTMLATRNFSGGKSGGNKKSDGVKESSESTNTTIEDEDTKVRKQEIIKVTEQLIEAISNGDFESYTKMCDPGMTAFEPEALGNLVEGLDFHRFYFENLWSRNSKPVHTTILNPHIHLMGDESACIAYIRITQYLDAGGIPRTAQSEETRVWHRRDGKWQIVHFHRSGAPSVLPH
SMILES	target or system	test	test system	conditions	measurement	value
Oc1cc(O)cc(/C=C/c2c(O)cccc2O)c1	CAMK2A	enzyme activity, inhibitor	–	10 µM	inhibition	15%
CCOc1cc2c(cc1OCC)-n1cccc1C(c1ccccc1OC)NC2 (stereo not shown)	–	–	mouse, microsomes or S9	2 µM, 0.5 h	remaining compound	21.1%
C[C@]12CC[C@H]3[C@@H](CC[C@@]45O[C@@H]4C(O)=C(C#N)C[C@]35C)[C@@H]1CC[C@@H]2O	CAMK2A	enzyme activity, inhibitor	–	10 µM	inhibition	9%
